Results pooled from the literature.
Compare with care: the assays were run in different laboratories. ± gives the spread as reported.

C[C@H](NC(=O)CNC(=O)[C@H](CCC(=O)O)NC(=O)[C@H](CCC(=O)O)NC(=O)[C@H](CC(=O)O)NC(=O)[C@@H]1CCCN1C(=O)[C@H](Cc1ccccc1)NC(=O)[C@H](CS)NC(=O)[C@H](Cc1ccc(O)cc1)NC(=O)CCCNC(=O)CNC(=O)CNC(=O)[C@@H](C)NC(=O)CN)C(=O)N[C@@H](CS)C(=O)N[C@@H](Cc1ccc(O)cc1)C(N)=O [technetium-99m labelled] — decrease of kidney radioactivity (KM mice, kidney; intravenous, dose not given, 120 min; baseline: 10 min value): 77%
CCCC[C@H](NC(=O)CNC(=O)CNC(=O)c1ccc(NN)nc1)C(=O)N[C@H]1CC(=O)NCCCC[C@@H](C(N)=O)NC(=O)[C@H](Cc2c[nH]c3ccccc23)NC(=O)[C@H](CCCNC(=N)N)NC(=O)[C@@H](Cc2ccccc2)NC(=O)[C@H](Cc2c[nH]cn2)NC1=O [technetium-99m labelled] — uptake (C57 mouse, B16/F1 melanoma, liver; 2 h, together with: NDP-MSH 6.07 nmol blockade): 0.52 ± 0.07 %ID/g
CSCC[C@H](NC(=O)[C@H](CC(C)C)NC(=O)[C@H](Cc1c[nH]cn1)NC(=O)CNC(=O)[C@@H](NC(=O)[C@H](C)NC(=O)[C@H](Cc1c[nH]c2ccccc12)NC(=O)[C@H](CCC(N)=O)NC(=O)CCCCCCCNC(=O)CCC(=O)Nc1ccc(CNC23CNCCNCC(N)(CNCCNC2)CNCCNC3)cc1)C(C)C)C(N)=O [copper-64 labelled] — tissue uptake (female SCID mice, PC-3 xenograft, kidney; intravenous, 0.6 MBq, 24 h): 5.16 ± 0.284 %ID/g
CSCC[C@H](NC(=O)[C@H](CC(C)C)NC(=O)[C@H](Cc1c[nH]cn1)NC(=O)CNC(=O)[C@@H](NC(=O)[C@H](C)NC(=O)[C@H](Cc1c[nH]c2ccccc12)NC(=O)[C@H](CCC(N)=O)NC(=O)CCCCCNC(=O)CNC(=O)CNC(=O)CNC(=O)CSC(C)=O)C(C)C)C(N)=O [technetium-99m labelled] — tissue uptake (nude mouse, PC-3 xenograft, tumor; 90 min, together with: excess unlabelled conjugate): 0.16 ± 0.02 %ID/g
CCCC[C@H](NC(=O)CNC(=O)[C@H](CO)NC(=O)CNC(=O)c1ccc(NN)nc1)C(=O)N[C@H]1CC(=O)NCCCC[C@@H](C(N)=O)NC(=O)[C@H](Cc2c[nH]c3ccccc23)NC(=O)[C@H](CCCNC(=N)N)NC(=O)[C@@H](Cc2ccccc2)NC(=O)[C@H](Cc2c[nH]cn2)NC1=O [technetium-99m labelled] — uptake (C57 mouse, B16/F1 melanoma, pancreas; intravenous, 2 h): 0.02 ± 0.02 %ID/g
N=C(N)NCCC[C@@H]1NC(=O)[C@H](CCCCNC(=O)CNC(=O)CNC(=O)CNC(=O)CC[C@H](NC(=O)CCOCCOCCOCCOCCNC(=O)CC[C@H](NC(=O)CN2CCN(CC(=O)O)CCN(CC(=O)O)CCN(CC(=O)O)CC2)C(=O)NCCOCCOCCOCCOCCC(=O)N[C@@H](CCC(=O)NCC(=O)NCC(=O)NCC(=O)NCCCC[C@@H]2NC(=O)[C@@H](Cc3ccccc3)NC(=O)[C@H](CC(=O)O)NC(=O)CNC(=O)[C@H](CCCNC(=N)N)NC2=O)C(=O)NCC(=O)NCC(=O)NCC(=O)NCCCC[C@@H]2NC(=O)[C@@H](Cc3ccccc3)NC(=O)[C@H](CC(=O)O)NC(=O)CNC(=O)[C@H](CCCNC(=N)N)NC2=O)C(=O)NCC(=O)NCC(=O)NCC(=O)NCCCC[C@@H]2NC(=O)[C@@H](Cc3ccccc3)NC(=O)[C@H](CC(=O)O)NC(=O)CNC(=O)[C@H](CCCNC(=N)N)NC2=O)NC(=O)[C@@H](Cc2ccccc2)NC(=O)[C@H](CC(=O)O)NC(=O)CNC1=O [indium-111 labelled] — tissue uptake (female athymic nude mice, heart; intravenous, 3 µCi, 4 h, U-87 MG glioma xenograft): 0.57 ± 0.06 %ID/g
CC(C)C[C@H](NC(=O)[C@@H]1CCCN1C(=O)[C@H](CCCCN)NC(=O)[C@@H](N)CO)C(=O)N1CCC[C@H]1C(=O)N[C@@H](CCC(=O)O)C(=O)N[C@H](C(=O)N[C@H](C(=O)N[C@@H](CC(=O)O)C(=O)N[C@@H](CCC(=O)O)C(=O)N[C@@H](Cc1ccc(O)cc1)C(=O)N[C@@H](Cc1cn(CCOCCOCCOCCNC(=O)CCc2ccc(O)c(CN(CCN(CC(=O)O)Cc3cc(CCC(=O)NCCCC[C@H](NC(=O)N[C@@H](CCC(=O)O)C(=O)O)C(=O)O)ccc3O)CC(=O)O)c2)nn1)C(=O)O)[C@@H](C)O)C(C)C [gallium-68 labelled] — SUV (NMRI nu/nu mouse, LNCaP xenograft, submandibular gland; 10 MBq, high molar activity): 0.09 g/g
CSCC[C@H](NC(=O)[C@H](CC(C)C)NC(=O)[C@H](Cc1c[nH]cn1)NC(=O)CNC(=O)[C@@H](NC(=O)[C@H](C)NC(=O)[C@H](Cc1c[nH]c2ccccc12)NC(=O)[C@H](CCC(N)=O)NC(=O)CCOCCOCCOCCOCCNC(=O)CCCN1C(=O)CC(SC[C@H](NC(=O)[C@H](CCCCNC(=O)c2ccc3c(c2)C(=O)OC32c3ccc(O)cc3Oc3cc(O)ccc32)NC(=O)CC[C@H](C(=O)O)N2CCN(CC(=O)O)CCN(CC(=O)O)CC2)C(N)=O)C1=O)C(C)C)C(N)=O (some centres unmarked) — logD (shake-flask; 1-octanol/phosphate buffer; pH 7.4, 68Ga-labelled): -3.27
N=C(N)NCCC[C@@H]1NC(=O)[C@H](CCCCNC(=O)CC[C@H](NC(=O)CCOCCOCCOCCOCCNC(=O)CC[C@H](NC(=O)CN2CCN(CC(=O)O)CCN(CC(=O)O)CCN(CC(=O)O)CC2)C(=O)NCCOCCOCCOCCOCCC(=O)N[C@@H](CCC(=O)NCCCC[C@@H]2NC(=O)[C@@H](Cc3ccccc3)NC(=O)[C@H](CC(=O)O)NC(=O)CNC(=O)[C@H](CCCNC(=N)N)NC2=O)C(=O)NCCCC[C@@H]2NC(=O)[C@@H](Cc3ccccc3)NC(=O)[C@H](CC(=O)O)NC(=O)CNC(=O)[C@H](CCCNC(=N)N)NC2=O)C(=O)NCCCC[C@@H]2NC(=O)[C@@H](Cc3ccccc3)NC(=O)[C@H](CC(=O)O)NC(=O)CNC(=O)[C@H](CCCNC(=N)N)NC2=O)NC(=O)[C@@H](Cc2ccccc2)NC(=O)[C@H](CC(=O)O)NC(=O)CNC1=O [indium-111 labelled] — tissue uptake (athymic nude mice, female, U-87 MG glioma xenograft, bone; intravenous, 3 µCi, 72 h): 0.34 ± 0.03 %ID/g
CCCCC/C=C\C/C=C\CCCCCCCC(=O)OC[C@H](NC(=O)[C@H](Cc1c[nH]c2ccccc12)NC(=O)[C@H](Cc1c[nH]cn1)NC(=O)[C@@H]1CCC(=O)N1)C(=O)N[C@@H](Cc1ccc(O)cc1)C(=O)N[C@H](CC(C)C)C(=O)N[C@@H](CC(C)C)C(=O)N[C@@H](CCCNC(=N)N)C(=O)N1CCC[C@H]1C(=O)NCC — conversion to leucine (HPLC; human plasma; 1 mg/mL, 4 weeks, 37 °C): 85.5%
N=C(N)NCCC[C@@H]1NC(=O)[C@H](CCCCNC(=O)CCOCCOCCOCCOCCNC(=O)CC[C@H](NC(=O)CCOCCOCCOCCOCCNC(=O)CC[C@H](NC(=O)CN2CCN(CC(=O)O)CCN(CC(=O)O)CCN(CC(=O)O)CC2)C(=O)NCCOCCOCCOCCOCCC(=O)N[C@@H](CCC(=O)NCCOCCOCCOCCOCCC(=O)NCCCC[C@@H]2NC(=O)[C@@H](Cc3ccccc3)NC(=O)[C@H](CC(=O)O)NC(=O)CNC(=O)[C@H](CCCNC(=N)N)NC2=O)C(=O)NCCOCCOCCOCCOCCC(=O)NCCCC[C@@H]2NC(=O)[C@@H](Cc3ccccc3)NC(=O)[C@H](CC(=O)O)NC(=O)CNC(=O)[C@H](CCCNC(=N)N)NC2=O)C(=O)NCCOCCOCCOCCOCCC(=O)NCCCC[C@@H]2NC(=O)[C@@H](Cc3ccccc3)NC(=O)[C@H](CC(=O)O)NC(=O)CNC(=O)[C@H](CCCNC(=N)N)NC2=O)NC(=O)[C@@H](Cc2ccccc2)NC(=O)[C@H](CC(=O)O)NC(=O)CNC1=O [indium-111 labelled] — tissue uptake (female athymic nude mice, blood; intravenous, 3 µCi, 24 h, U-87 MG glioma xenograft): 0.12 ± 0.02 %ID/g
CSCC[C@H](NC(=O)[C@H](CC(C)C)NC(=O)[C@H](Cc1c[nH]cn1)NC(=O)CNC(=O)[C@@H](NC(=O)[C@H](C)NC(=O)[C@H](Cc1c[nH]c2ccccc12)NC(=O)[C@H](CCC(N)=O)NC(=O)CCCCCNC(=O)CN1CCN(CC(=O)O)CCN(CC(=O)O)CC1)C(C)C)C(N)=O [gallium-68 labelled] — intact parent (radio-HPLC; nude mice, PC-3 tumour, tumour homogenate; intravenous, 37 MBq, 30 min): ~28.5%
CCCC[C@H](NC(=O)CCCCCCCNC(=O)c1ccc(NN)nc1)C(=O)N[C@H]1CC(=O)NCCCC[C@@H](C(N)=O)NC(=O)[C@H](Cc2c[nH]c3ccccc23)NC(=O)[C@H](CCCNC(=N)N)NC(=O)[C@@H](Cc2ccccc2)NC(=O)[C@H](Cc2c[nH]cn2)NC1=O [technetium-99m labelled] — uptake (C57 mouse, B16/F1 melanoma, heart; intravenous, 24 h): 0.07 ± 0.02 %ID/g
N=C(N)NCCC[C@@H]1NC(=O)[C@H](CCCCNC(=O)CC[C@H](NC(=O)CCOCCOCCOCCOCCNC(=O)CN2CCN(CC(=O)O)CCN(CC(=O)O)CCN(CC(=O)O)CC2)C(=O)NCCCC[C@@H]2NC(=O)[C@@H](Cc3ccccc3)NC(=O)[C@H](CC(=O)O)NC(=O)CNC(=O)[C@H](CCCNC(=N)N)NC2=O)NC(=O)[C@@H](Cc2ccccc2)NC(=O)[C@H](CC(=O)O)NC(=O)CNC1=O [indium-111 labelled] — tissue uptake (female athymic nude mice, bone; intravenous, 3 µCi, 0.5 h, U-87 MG glioma xenograft): 1.52 ± 0.47 %ID/g

For quick reference, copied from above:
CCCCC/C=C\C/C=C\CCCCCCCC(=O)OC[C@H](NC(=O)[C@H](Cc1c[nH]c2ccccc12)NC(=O)[C@H](Cc1c[nH]cn1)NC(=O)[C@@H]1CCC(=O)N1)C(=O)N[C@@H](Cc1ccc(O)cc1)C(=O)N[C@H](CC(C)C)C(=O)N[C@@H](CC(C)C)C(=O)N[C@@H](CCCNC(=N)N)C(=O)N1CCC[C@H]1C(=O)NCC — conversion to leucine (HPLC; human plasma; 1 mg/mL, 4 weeks, 37 °C): 85.5%
